Assay results collected from several papers.
Parts stem from different laboratories: compare values within a part only.
Chain of UniProt Q86YV6 (whole entry, looked up): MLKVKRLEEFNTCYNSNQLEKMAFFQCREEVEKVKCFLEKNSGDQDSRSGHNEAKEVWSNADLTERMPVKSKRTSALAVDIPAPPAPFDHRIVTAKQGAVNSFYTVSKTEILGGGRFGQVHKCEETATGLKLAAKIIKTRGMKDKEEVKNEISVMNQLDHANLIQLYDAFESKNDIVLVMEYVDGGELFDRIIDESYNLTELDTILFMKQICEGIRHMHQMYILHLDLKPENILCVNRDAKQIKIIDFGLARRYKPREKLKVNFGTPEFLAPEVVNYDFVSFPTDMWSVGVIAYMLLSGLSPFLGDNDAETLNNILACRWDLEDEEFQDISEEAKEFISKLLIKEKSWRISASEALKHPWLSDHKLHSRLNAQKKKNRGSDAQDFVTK
Chain of UniProt P08631 (whole entry, looked up): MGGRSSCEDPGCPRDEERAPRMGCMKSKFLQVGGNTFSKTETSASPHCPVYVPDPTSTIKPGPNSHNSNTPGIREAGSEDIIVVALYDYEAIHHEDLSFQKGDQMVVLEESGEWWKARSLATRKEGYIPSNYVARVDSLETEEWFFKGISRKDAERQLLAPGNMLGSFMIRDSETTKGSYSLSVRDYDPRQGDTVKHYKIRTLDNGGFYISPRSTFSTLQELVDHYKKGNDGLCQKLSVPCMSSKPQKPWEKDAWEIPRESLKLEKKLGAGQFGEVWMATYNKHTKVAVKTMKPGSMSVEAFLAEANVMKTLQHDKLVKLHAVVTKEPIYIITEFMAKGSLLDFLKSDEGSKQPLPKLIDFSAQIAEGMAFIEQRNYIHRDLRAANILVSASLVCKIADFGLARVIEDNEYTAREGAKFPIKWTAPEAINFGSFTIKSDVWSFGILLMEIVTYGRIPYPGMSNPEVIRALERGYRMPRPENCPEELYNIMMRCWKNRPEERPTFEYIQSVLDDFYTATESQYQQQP
Chain of UniProt P00519 (whole entry, unmodified, looked up): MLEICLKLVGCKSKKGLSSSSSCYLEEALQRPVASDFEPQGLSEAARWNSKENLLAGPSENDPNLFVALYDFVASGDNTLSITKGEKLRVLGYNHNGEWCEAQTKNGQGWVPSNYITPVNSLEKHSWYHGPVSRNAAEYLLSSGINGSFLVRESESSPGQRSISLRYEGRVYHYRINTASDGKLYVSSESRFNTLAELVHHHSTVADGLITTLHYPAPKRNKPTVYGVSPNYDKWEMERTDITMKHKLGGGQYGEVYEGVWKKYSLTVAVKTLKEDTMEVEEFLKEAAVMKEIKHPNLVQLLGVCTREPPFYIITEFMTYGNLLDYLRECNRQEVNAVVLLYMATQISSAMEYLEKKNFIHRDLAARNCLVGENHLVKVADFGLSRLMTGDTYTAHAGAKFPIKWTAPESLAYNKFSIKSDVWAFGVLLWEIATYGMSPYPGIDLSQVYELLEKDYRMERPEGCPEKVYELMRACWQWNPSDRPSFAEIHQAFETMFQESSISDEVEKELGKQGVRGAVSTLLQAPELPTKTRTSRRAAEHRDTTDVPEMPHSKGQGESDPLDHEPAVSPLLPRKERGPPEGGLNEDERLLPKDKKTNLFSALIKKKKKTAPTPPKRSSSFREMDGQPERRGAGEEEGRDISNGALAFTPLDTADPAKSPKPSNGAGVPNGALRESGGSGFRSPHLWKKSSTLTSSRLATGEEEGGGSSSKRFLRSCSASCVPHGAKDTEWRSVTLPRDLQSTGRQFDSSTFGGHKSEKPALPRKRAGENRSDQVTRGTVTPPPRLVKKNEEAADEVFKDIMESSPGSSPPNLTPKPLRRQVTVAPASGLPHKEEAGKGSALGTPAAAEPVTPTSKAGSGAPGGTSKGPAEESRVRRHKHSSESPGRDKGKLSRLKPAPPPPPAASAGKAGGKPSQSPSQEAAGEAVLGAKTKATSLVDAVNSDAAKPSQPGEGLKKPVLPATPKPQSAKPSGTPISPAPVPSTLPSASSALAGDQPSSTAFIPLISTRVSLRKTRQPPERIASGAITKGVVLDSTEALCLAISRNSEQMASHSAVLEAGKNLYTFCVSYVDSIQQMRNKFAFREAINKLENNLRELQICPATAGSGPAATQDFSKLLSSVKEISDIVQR
Chain of UniProt P45985 (whole entry, looked up): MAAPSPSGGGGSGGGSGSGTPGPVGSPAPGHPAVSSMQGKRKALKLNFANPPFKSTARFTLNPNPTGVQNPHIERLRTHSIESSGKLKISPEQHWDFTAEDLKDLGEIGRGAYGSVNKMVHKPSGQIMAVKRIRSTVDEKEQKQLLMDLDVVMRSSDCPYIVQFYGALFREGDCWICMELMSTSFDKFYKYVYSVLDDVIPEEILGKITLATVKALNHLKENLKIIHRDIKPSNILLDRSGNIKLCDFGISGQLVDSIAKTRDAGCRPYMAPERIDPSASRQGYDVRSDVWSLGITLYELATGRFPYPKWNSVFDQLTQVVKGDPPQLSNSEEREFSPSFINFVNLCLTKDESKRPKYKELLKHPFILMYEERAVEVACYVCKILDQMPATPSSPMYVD
Chain of UniProt Q96SB4 (whole entry, looked up): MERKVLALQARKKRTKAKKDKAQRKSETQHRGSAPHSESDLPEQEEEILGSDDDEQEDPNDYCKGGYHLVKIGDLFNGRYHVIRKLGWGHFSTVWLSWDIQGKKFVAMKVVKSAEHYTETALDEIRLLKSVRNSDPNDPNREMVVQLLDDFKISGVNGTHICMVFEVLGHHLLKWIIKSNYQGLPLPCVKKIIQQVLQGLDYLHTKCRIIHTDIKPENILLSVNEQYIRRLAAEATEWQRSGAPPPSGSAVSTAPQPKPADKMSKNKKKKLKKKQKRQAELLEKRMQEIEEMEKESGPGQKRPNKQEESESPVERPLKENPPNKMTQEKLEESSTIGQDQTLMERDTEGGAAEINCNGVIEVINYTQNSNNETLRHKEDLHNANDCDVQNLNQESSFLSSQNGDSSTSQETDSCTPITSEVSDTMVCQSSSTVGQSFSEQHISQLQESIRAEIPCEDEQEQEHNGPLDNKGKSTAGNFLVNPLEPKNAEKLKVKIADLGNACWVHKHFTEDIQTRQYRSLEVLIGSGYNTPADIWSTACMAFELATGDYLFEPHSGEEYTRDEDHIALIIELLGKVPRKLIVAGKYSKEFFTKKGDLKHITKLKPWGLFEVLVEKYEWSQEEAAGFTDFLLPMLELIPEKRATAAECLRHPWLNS

Series 1 — effect on: enzyme activity; mode: inhibitor; concentration: 0.5 µM; relative to: control
Target: Calcium/calmodulin-dependent protein kinase type II subunit gamma (CAMK2G, Homo sapiens, UniProt Q13555)
Chain of UniProt Q13555 (whole entry, looked up): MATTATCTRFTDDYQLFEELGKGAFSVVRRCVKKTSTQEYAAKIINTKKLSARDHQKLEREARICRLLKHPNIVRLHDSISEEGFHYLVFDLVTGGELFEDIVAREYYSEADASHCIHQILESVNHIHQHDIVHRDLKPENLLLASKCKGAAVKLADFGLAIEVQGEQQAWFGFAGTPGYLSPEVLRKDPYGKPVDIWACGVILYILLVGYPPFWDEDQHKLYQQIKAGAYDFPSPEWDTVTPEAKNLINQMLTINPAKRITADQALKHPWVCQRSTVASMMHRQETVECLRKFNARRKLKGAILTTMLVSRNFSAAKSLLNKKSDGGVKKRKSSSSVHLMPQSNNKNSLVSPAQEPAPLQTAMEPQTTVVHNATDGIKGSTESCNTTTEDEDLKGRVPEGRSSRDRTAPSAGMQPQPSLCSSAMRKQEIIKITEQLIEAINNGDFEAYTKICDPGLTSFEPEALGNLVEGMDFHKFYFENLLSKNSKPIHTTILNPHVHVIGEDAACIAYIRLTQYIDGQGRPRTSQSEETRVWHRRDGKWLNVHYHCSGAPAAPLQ
`O=C(CCCc1ccc(-c2ccccc2F)cc1)Nc1ccc(O)cc1` has a remaining activity of 109%.
For `Cn1c2ccccc2c2c3c(c4c5ccccc5n(CCC#N)c4c21)CNC3=O`, the remaining activity was 21.9%.
`COc1ccc(C(=O)Nc2sc3c(c2C(N)=O)CCCC3)cc1OC` gave a remaining activity of 95.8%.
With `O=C1NC(=O)C(c2cn(CCCn3ccnc3)c3ccccc23)=C1Nc1ccccc1` the remaining activity was 90.9%.
The remaining activity of `Nc1ncnc2n[nH]c(Nc3ccc(F)cc3)c12` is reported as 119%.
With `N#CC(C#N)=C(N)/C(C#N)=C/c1ccc(O)cc1` the remaining activity was 89.4%.
The remaining activity of `O=S(=O)(c1cccc2cnccc12)N1CCCNCC1` is reported as 93.1%.
For `Cc1nc(-c2ccccc2)c(-c2ccncc2)o1`, the remaining activity was 91.7%.
The remaining activity of `Cc1cccc(-c2[nH]c(C(C)(C)C)nc2-c2ccc3c(c2)OCO3)n1` is reported as 85.5%.
The remaining activity of `CNC(=O)c1cc(Oc2ccc(NC(=O)Nc3ccc(Cl)c(C(F)(F)F)c3)cc2)ccn1` is reported as 108%.
For `CC(C)[C@H](CO)Nc1nc(Nc2cc(N)cc(Cl)c2)c2ncn(C(C)C)c2n1`, the remaining activity was 104%.
With `CN(C)c1ccc(C=C2C(=O)Nc3ccccc32)cc1` the remaining activity was 99.6%.
`Nc1ccc2ncnc(NCCc3ccc(Oc4ccccc4)cc3)c2c1` has a remaining activity of 118%.
The remaining activity of `COc1cc2nccc(Oc3ccc(NC(=S)NC(=O)c4ccccc4C)cc3)c2cc1OC` is reported as 103%.
The remaining activity of `COc1ccc(CNC(=O)Nc2ncc([N+](=O)[O-])s2)cc1` is reported as 102%.

Series 2 — effect on: cell-free assay; technique: competition with immobilised ligand; concentration: 1 µM
Structure (SMILES): CC1=C(C#N)[C@@H](c2ccc3[nH]nc(C)c3c2)C(C#N)=C(c2ccc(Cl)cc2)N1
It gave 100% for remaining binding (HCK (Homo sapiens, UniProt P08631)).
It gave 100% for remaining binding (Tyrosine-protein kinase ABL1, non-phosphorylated (ABL1, Homo sapiens, UniProt P00519, F317L)).
MAP2K4 (Homo sapiens, UniProt P45985) — remaining binding: 71.5%.
It gave 100% for remaining binding (SRPK1 (Homo sapiens, UniProt Q96SB4)).
It gave 25.1% for remaining binding (MET (Homo sapiens, UniProt P08581, M1250T)).
MYLK4 (Homo sapiens, UniProt Q86YV6) — remaining binding: 100%.

Series 3 — technique: universal PBM; form: double-stranded DNA, one strand shown; medium: in vitro; concentration: 600 nM; direction: higher = stronger binding
Target: Sal-like protein 4, full length isoform A (SALL4, Homo sapiens, UniProt Q9UJQ4, residues 1-1053)
Chain of UniProt Q9UJQ4 (whole entry, looked up): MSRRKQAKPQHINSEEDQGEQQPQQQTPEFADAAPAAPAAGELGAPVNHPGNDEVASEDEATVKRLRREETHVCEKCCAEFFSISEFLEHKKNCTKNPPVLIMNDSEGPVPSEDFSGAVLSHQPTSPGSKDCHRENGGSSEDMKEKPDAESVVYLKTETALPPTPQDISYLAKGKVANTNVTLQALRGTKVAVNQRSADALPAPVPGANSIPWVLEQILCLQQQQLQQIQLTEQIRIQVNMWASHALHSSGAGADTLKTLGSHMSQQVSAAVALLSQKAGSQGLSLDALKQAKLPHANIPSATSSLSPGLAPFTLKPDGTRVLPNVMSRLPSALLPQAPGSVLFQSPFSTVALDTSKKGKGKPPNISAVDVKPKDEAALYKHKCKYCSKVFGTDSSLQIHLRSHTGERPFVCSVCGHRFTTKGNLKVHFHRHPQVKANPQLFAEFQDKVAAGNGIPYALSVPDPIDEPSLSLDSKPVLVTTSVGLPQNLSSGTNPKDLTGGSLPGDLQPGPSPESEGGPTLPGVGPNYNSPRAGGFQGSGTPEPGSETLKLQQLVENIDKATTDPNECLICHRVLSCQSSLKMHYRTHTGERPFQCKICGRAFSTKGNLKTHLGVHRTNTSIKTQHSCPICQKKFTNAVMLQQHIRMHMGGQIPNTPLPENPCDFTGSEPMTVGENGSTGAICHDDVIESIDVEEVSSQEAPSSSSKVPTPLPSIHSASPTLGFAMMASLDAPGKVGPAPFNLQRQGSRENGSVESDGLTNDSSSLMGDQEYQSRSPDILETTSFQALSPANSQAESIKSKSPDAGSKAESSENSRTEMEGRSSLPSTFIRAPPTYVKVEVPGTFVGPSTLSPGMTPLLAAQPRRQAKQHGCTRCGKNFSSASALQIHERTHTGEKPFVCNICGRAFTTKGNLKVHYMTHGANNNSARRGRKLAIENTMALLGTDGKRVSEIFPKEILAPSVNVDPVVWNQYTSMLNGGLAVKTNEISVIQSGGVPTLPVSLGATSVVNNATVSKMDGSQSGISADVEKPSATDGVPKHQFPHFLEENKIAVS
Setting: 8-mer, flanks averaged, mean of replicates
With `GATGCGAA` the E-score was 0.102.
The E-score of `CGCGGCAC` is reported as -0.294.
For `TGAACAAA`, the E-score was 0.213.
With `CCATGGGC` the E-score was -0.349.
For `CTATGTCA`, the E-score was 0.229.
`CTGAATTC` has an E-score of -0.00932.
For `CCCCGGAC`, the E-score was -0.31.
With `TAACAAAA` the E-score was 0.35.

Series 4 — technique: RNA Bind-n-Seq; form: RNA; medium: in vitro; concentration: not given; relative to: input RNA pool; direction: higher = stronger binding
Target: RING finger protein unkempt homolog, zinc fingers 1-6, GST-SBP tag (UNK, Homo sapiens, UniProt Q9C0B0, residues 30-357)
Setting: RNA with constant flanks, human-mouse chimeric sites, ends assumed
Target sequence (chain): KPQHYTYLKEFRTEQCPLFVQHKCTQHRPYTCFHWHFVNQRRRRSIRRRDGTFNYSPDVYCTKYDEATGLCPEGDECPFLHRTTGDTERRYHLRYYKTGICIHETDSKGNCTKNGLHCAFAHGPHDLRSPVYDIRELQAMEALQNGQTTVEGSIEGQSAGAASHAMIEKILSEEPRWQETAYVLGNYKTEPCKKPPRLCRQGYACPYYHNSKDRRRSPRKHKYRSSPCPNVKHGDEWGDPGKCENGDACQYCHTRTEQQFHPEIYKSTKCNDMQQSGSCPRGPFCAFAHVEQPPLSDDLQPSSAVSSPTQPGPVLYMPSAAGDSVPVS
`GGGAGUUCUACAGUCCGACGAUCUGACAAGGGCACUGCAGAGCCAUGCCUUUCCUUGACAUACAGAAAAAGCUGGGCAUCAGCCUGGACCGAUGGUUGACGUUCCUAAGCGCAGAACAGCCCUACAAGAUCGCCGCUCGGUGCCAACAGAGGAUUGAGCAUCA` has a bound/input enrichment of 0.068 ratio.
`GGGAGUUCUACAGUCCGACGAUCCACACACUCUUCUGCGGCACCCUCAUUUUGCAGGCCCGGGCCUAUGUGGGACCGCACGUCCUGGCAGUGGUGACCCGCACAGGGUUCUGCACAGCCAAAGGGGGCCUGGUGAGCUCCAUCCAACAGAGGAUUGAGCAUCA` gave a bound/input enrichment of 0.109 ratio.
`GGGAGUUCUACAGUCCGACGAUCAGAAUCUUGGGACUGUUUUACUUAAUUGGUCAUUGAUAUCUCAACAAACAUGGAGAUAAGAUUAGAAAUCUUGACAUCAACAGGUAUUAAGCAGAAAAAACCAUGGCCCAGAGUAUCCUGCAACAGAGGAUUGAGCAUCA` has a bound/input enrichment of 0.111 ratio.
For `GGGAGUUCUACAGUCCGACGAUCUGUAGUUUCGCGGUUCAGGCUUUGUGUGUAGUUCACUCUAUGUAUUAAAUUAUUAUUCUGCUUAGCUUAUAAUAAGGAUAAUUGCAUUUAAAGAGGUUACUGAAUGUUACUCUGAAACUUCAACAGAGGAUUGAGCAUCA`, the bound/input enrichment was 0.244 ratio.
`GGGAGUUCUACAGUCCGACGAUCUAAGUCCUGUGCCAGCACUUCGCUCAUAAAGUUUUAAAUUCUGGACCAAUUGUGUUUGUUUCCUGAUUAUUGUAUCCAAUACUUUGCCUAGUAUGUAACUCAUGCUUACUGAUAAUAAAACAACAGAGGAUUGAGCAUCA` has a bound/input enrichment of 0.694 ratio.
For `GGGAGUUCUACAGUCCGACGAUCGCGGCAGAAUCAUGGAGGACAUAAUGCAGCUCCCCAAAGCGCGCGUCAACGCCAGCAUGUUACCACAGUAUAUCGACCGGCCCGUGUGCUUCGUAGGGAGGCUGGAAAAGAUUCAUCCCACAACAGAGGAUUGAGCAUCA`, the bound/input enrichment was 0.189 ratio.
The bound/input enrichment of `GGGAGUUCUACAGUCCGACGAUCAGCACAACCCCAGCAAAGCUAAGAAAUCCUUGUACAAGUGAACAGAACUGCACCAGCCCAUUUAGCUACAAAAAUGUGCUCAGUCUUACUGACAGAGGAGAGUUUUUCAAUGAACUUGUUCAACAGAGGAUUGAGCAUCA` is reported as 1.72 ratio.
For `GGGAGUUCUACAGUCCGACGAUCUUGUCGAAGACUCAACGAAAGACUCCAACGGUUAUUCAUAAACAUUAUCAAAUUCAUCGGAUUCGACAUUUUUAUAUGAGAAAAGUCAAAUUUACUCAACAGAAUUACCAUGACAGACUGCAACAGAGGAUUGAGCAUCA`, the bound/input enrichment was 0.161 ratio.

Excerpt of the above (series 2):
MAP2K4 (Homo sapiens, UniProt P45985) — remaining binding: 71.5%.
It gave 100% for remaining binding (SRPK1 (Homo sapiens, UniProt Q96SB4)).
It gave 25.1% for remaining binding (MET (Homo sapiens, UniProt P08581, M1250T)).
MYLK4 (Homo sapiens, UniProt Q86YV6) — remaining binding: 100%.
